Assay results from different studies.
Each line is one published result; not all experiments were run side by side.
Matrix: plasma

| Compound | species | route | dose | time | notes | with | AUC(0-inf) [µg·h/mL] |
| --- | --- | --- | --- | --- | --- | --- | --- |
| CC1(C)CC[C@]2(NC(=O)C(C)(F)F)CC[C@]3(C)[C@H](C(=O)C=C4[C@@]5(C)C=C(C#N)C(=O)C(C)(C)[C@@H]5CC[C@]43C)[C@@H]2C1 | human | oral | dose not given |  | geometric least-squares mean | efavirenz | 0.712 |
| CCCCCCCCCCCCCCCC(=O)N[C@@H](CCCCN)C(=O)N[C@@H](CCCCN)C(=O)N[C@@H](CO)C(=O)N[C@@H](CCCNC(=N)N)C(=O)N[C@@H](C)C(=O)N[C@@H](CC(C)C)C(=O)N[C@@H](Cc1ccccc1)C(N)=O | human patients | intravenous | 0.5 mg/kg over 2 h |  |  |  | 7.44 |
| Cc1[nH]c(=O)c(CNC(=O)c2cc(Cl)c3c(c2C)O[C@@](C)([C@H]2CC[C@H](N(C)C)CC2)O3)c(C)c1O | human | oral | 200 mg |  | single dose, metabolite of valemetostat | [14C]-valemetostat | 12.6 |
| CN1CCC[C@]1(C)/C=C/S(=O)(=O)NC(=O)Nc1c2c(cc3c1CC(O)C3)CCC2 (stereo partly shown) | human | oral | 50 mg twice daily of parent drug | day 14 | metabolite of dosed drug |  | 157 |
| CC(C)C[C@H](NC(=O)[C@H](CCCN)NC(=O)CNC(=O)[C@@H](NC(=O)[C@H](C)NC(=O)[C@@H]1CSCSC[C@H](NC(=O)CC[C@H](N)C(=O)O)C(=O)N[C@@H](CC(N)=O)C(=O)N[C@@H]([C@@H](C)O)C(=O)N[C@@H](C)C(=O)N[C@@H]([C@@H](C)O)C(=O)N1)[C@@H](C)O)C(=O)N[C@@H](C)C(=O)N[C@@H](CCC(=O)O)C(=O)N[C@@](C)(Cc1ccccc1)C(=O)N[C@@H](CC(C)C)C(=O)N[C@H](C(=O)N[C@@H](CCCNC(=N)N)C(=O)N[C@@H](CO)C(=O)N[C@@H](CO)C(=O)N[C@@H](CC(N)=O)C(=O)N(C)[C@@H](CC(N)=O)C(=O)N[C@@H](Cc1ccccc1)C(=O)NCC(=O)N1CCC[C@H]1C(=O)N[C@@H](CCCCNC(=O)CC[C@H](NC(=O)CC[C@H](NC(=O)CCCCCCCCCCCCCCCCCCC(=O)O)C(=O)O)C(=O)O)C(=O)N[C@@H](CC(C)C)C(=O)N1CCC[C@H]1C(=O)N1CCC[C@H]1C(=O)N[C@H](C(=O)N[C@@H](CCC(=O)O)C(=O)N[C@H](C(=O)NCC(=O)N[C@@H](CO)C(=O)N[C@@H](CC(N)=O)C(=O)N[C@H](C(=O)N[C@@H](Cc1ccc(O)cc1)C(N)=O)[C@@H](C)O)C(C)C)[C@@H](C)O)C(C)C | healthy human | subcutaneous | 4 mg |  |  |  | 224 |
| CN(C(=O)C(C)(C)c1cc(C(F)(F)F)cc(C(F)(F)F)c1)c1cnc(N2C[C@H]3COC(O)CN3C[C@H]2CO)cc1-c1ccc(F)cc1CO (stereo partly shown) | human | oral | 120 mg |  | geometric mean |  | 1.2 |
| CN1CCC[C@]1(C)/C=C/S(=O)(=O)NC(=O)Nc1c2c(cc3c1CCC3)CC=C2 | human | oral | 50 mg twice daily of parent drug | day 14 | metabolite of dosed drug |  | 747 |
| CC[C@H](C)[C@@H]1NC(=O)[C@H](Cc2ccc(O)cc2)NC(=O)CCCSC[C@@H](C(=O)N(CC(=O)N[C@@H](CC(C)C)C(=O)NCC(N)=O)Cc2ccc(F)cc2)NC(=O)[C@H](CC(N)=O)NC(=O)[C@H](CCC(N)=O)NC1=O | human | intranasal | 400 µg |  | single dose |  | 0.000112 |
| CN1CCC[C@]1(C)/C=C/S(=O)(=O)NC(=O)Nc1c2c(cc3c1CCC3O)CCC2 (stereo partly shown) | human | oral | 100 mg twice daily of parent drug | day 14 | metabolite of dosed drug |  | 1970 |
| N#Cc1cc(NC(=O)C2c3ccccc3C(=O)N(CC(F)(F)F)C2c2ccc[n+]([O-])c2)ccc1F (stereo not shown) | human |  | 600 mg |  | fed, median |  | 33 |

A few entries again:
| Compound | species | route | dose | time | notes | with | AUC(0-inf) [µg·h/mL] |
| --- | --- | --- | --- | --- | --- | --- | --- |
| CCCCCCCCCCCCCCCC(=O)N[C@@H](CCCCN)C(=O)N[C@@H](CCCCN)C(=O)N[C@@H](CO)C(=O)N[C@@H](CCCNC(=N)N)C(=O)N[C@@H](C)C(=O)N[C@@H](CC(C)C)C(=O)N[C@@H](Cc1ccccc1)C(N)=O | human patients | intravenous | 0.5 mg/kg over 2 h |  |  |  | 7.44 |
